Measurements of several laboratories.
A part holds a random share of what one study measured.
UniProt P23458, sequence (whole entry, looked up): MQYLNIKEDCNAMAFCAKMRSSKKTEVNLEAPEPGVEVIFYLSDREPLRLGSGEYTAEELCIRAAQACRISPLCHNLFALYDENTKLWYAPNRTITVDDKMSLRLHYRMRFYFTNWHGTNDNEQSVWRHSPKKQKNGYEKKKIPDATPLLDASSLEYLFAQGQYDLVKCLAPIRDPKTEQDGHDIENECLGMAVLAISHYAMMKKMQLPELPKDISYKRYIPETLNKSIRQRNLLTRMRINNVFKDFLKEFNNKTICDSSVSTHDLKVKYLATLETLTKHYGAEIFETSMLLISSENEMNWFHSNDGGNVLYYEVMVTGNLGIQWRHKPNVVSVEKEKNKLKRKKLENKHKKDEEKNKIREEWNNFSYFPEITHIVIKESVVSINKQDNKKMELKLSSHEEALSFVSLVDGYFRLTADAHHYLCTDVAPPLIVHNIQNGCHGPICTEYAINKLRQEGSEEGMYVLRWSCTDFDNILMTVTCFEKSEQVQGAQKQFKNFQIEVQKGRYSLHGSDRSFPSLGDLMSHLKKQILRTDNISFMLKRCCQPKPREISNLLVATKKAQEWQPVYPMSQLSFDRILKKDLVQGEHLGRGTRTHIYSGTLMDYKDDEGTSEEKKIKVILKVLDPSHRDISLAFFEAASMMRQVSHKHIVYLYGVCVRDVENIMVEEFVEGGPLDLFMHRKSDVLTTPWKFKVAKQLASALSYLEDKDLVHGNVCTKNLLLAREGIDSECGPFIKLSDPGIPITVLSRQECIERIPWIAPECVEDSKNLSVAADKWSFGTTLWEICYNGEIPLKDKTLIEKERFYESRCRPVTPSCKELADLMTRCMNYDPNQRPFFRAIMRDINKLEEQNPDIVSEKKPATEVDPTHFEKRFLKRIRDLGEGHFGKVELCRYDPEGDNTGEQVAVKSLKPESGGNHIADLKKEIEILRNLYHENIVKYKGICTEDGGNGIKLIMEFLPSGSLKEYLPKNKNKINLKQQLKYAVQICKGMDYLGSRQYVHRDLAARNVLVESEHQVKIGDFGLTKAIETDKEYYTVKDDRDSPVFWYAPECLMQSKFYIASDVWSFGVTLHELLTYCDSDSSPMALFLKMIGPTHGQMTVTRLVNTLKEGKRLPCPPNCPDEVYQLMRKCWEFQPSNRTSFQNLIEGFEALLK
UniProt Q16513, sequence (whole entry, looked up): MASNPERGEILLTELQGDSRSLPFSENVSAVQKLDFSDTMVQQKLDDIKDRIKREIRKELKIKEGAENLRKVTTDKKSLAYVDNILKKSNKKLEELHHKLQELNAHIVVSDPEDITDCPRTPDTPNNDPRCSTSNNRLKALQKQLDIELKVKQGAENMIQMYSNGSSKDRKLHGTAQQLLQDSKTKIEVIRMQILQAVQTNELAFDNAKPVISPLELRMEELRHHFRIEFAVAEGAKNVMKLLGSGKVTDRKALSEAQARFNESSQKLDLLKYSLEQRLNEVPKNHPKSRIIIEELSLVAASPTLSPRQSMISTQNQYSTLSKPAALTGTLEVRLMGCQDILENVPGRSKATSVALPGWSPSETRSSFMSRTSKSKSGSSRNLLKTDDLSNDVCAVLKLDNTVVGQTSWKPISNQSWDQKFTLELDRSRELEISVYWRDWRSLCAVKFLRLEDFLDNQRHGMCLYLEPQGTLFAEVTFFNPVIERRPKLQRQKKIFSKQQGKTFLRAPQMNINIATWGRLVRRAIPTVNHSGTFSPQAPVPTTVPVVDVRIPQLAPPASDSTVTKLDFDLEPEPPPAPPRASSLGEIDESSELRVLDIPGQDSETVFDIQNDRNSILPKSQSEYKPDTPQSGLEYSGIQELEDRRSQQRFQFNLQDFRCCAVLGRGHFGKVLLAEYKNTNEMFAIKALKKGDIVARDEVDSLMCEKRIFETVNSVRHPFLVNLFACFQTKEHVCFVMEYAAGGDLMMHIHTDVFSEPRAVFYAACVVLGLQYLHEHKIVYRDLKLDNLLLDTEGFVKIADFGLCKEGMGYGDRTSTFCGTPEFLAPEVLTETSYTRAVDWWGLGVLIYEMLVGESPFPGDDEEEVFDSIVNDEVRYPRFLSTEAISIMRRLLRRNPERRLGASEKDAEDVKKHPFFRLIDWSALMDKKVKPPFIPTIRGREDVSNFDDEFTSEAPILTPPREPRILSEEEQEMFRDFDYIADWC
UniProt P21127, sequence (whole entry, looked up): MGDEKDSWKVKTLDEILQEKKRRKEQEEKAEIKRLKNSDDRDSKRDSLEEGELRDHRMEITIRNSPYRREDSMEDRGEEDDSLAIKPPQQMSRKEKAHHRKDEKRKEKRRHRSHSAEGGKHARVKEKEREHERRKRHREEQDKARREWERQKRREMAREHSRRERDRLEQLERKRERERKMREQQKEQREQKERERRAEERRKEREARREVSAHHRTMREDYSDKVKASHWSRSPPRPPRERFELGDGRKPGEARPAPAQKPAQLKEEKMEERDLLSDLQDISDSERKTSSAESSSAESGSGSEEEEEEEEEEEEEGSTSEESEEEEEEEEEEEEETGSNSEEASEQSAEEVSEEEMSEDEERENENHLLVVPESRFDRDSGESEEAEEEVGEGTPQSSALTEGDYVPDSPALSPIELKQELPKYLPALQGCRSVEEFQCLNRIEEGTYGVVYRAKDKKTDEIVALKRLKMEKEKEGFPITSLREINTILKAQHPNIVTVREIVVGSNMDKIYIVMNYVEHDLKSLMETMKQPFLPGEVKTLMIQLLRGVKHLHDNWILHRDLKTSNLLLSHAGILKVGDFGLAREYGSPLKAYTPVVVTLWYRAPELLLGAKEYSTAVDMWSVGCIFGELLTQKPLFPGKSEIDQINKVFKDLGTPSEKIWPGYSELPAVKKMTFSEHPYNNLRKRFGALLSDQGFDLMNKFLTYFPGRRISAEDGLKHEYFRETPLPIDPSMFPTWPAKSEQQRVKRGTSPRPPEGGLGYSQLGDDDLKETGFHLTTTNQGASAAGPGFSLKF
UniProt P07949, sequence (whole entry, looked up): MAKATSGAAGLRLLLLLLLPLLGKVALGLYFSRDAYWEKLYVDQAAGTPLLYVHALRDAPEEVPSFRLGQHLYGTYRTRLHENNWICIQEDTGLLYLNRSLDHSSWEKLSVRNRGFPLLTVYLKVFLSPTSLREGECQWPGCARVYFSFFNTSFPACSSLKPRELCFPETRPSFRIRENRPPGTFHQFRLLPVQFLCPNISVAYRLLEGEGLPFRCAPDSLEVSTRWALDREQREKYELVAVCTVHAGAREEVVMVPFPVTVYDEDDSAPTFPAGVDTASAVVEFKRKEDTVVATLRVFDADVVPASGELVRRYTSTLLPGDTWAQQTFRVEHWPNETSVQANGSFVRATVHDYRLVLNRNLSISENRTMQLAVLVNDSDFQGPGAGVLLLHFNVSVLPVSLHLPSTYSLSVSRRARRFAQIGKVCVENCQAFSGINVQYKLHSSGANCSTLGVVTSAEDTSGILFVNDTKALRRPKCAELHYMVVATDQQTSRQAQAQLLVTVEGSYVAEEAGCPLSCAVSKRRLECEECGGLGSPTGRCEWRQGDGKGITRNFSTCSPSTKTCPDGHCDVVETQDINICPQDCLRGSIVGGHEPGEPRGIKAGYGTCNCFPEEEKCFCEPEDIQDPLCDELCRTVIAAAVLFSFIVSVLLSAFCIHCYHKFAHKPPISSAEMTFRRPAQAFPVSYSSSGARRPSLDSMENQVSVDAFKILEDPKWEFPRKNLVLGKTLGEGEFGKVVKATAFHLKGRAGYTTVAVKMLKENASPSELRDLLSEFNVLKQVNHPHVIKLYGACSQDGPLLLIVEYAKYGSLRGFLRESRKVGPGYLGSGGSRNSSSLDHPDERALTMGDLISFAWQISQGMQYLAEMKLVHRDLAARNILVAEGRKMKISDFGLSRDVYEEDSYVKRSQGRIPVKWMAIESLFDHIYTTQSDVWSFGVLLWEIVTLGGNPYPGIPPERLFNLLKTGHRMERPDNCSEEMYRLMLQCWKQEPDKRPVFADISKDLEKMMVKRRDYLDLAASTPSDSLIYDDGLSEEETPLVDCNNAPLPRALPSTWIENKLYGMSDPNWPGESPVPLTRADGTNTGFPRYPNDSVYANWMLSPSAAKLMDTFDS

Study 1
Target: Serine/threonine-protein kinase NLK (NLK, Homo sapiens, UniProt Q9UBE8)
UniProt Q9UBE8, sequence (whole entry, looked up): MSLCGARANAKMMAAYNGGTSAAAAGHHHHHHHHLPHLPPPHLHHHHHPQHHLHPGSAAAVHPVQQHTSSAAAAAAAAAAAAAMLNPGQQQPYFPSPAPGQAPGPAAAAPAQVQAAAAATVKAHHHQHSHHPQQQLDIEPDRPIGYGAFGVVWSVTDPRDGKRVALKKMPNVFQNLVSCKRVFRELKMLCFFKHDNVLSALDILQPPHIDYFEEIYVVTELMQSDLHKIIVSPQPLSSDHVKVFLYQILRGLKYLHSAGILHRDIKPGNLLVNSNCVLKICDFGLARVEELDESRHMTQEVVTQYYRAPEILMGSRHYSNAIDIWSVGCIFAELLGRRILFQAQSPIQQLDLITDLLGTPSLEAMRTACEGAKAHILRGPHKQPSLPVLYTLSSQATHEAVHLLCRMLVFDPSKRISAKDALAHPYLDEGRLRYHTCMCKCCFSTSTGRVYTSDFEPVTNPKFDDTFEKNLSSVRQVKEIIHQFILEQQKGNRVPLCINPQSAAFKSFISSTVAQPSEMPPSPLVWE
Effect on: enzyme activity
Mode: inhibitor
Concentration: 0.5 µM
Baseline: control
Quantity: remaining activity
c1ccc(-c2cnc(Nc3ccc(OCCN4CCCC4)cc3)s2)cc1: 89.7%
Cn1nc2c3c(cccc31)C(=O)c1ccccc1-2: 100%
N#Cc1c(NC(=O)c2cccc3ccccc23)sc2c1CCCC2: 99.4%
Cc1cc2ncc(-c3ccccc3)nc2cc1C: 92.8%
COc1cc2ncnc(Nc3ccc(O)c(Br)c3)c2cc1OC: 76.2%
CCN(CC)CCNC(=O)c1c(C)[nH]c(/C=C2\C(=O)Nc3ccc(Cl)cc32)c1C: 101%
N#C/C(=C\c1ccc(O)c(O)c1)C(=O)NCc1ccccc1: 110%
O=C1C(Cl)=C(N2C(=O)CCC2=O)C(=O)c2ccccc21: 105%
O=C(Nc1cccc(Nc2nccc(Nc3cccc(C(F)(F)F)c3)n2)c1)C1CC1: 101%
CCOc1nc(NC(=O)Cc2cc(OC)ccc2OC)cc(N)c1C#N: 104%
COc1cc2ncnc(Nc3cccc(Cl)c3)c2cc1OC: 83.1%
Ic1cccc(CSc2nnc(-c3ccncc3)o2)c1: 107%

Study 2
Target: 5-hydroxytryptamine receptor 1E (HTR1E, Homo sapiens, UniProt P28566)
UniProt P28566, sequence (whole entry, looked up): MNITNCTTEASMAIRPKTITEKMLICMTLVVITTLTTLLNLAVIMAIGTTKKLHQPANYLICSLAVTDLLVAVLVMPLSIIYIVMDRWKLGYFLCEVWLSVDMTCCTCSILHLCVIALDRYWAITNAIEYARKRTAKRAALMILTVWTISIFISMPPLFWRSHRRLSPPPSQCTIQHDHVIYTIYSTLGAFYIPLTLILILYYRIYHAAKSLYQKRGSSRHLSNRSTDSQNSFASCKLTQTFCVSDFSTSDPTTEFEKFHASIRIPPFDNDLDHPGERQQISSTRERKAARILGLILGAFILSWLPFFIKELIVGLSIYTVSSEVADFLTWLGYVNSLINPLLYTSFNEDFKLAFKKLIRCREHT
Effect on: ligand displacement
Method: radioligand
Concentration: 10 µM
Quantity: inhibition
CNCc1ccccc1-c1csc([C@H](C)Nc2nc(C)nc3cc(OC)c(OC)cc23)c1: 10.8%
O=C(NCc1ncc(C(F)(F)F)cc1Cl)c1ccc2c(c1)C1(CCS(=O)(=O)CC1)[C@@H](C1CC1)N2S(=O)(=O)c1ccc(F)cc1: -1.55%
Cc1nccc(COC(=O)N2C[C@@H]3[C@@H](CNC(=O)c4ccc5[nH]nnc5c4)[C@@H]3C2)n1: 31.8%
CCc1ccccc1C(=O)Nc1n[nH]c2c(C)c(F)c(C3C(C#N)=C(C)N(C)C(C)=C3C#N)cc12: 2.66%
Cn1cc(Cl)c2c(Oc3c(F)cc(Nc4cc(Cl)nc(N)n4)cc3F)ccnc21: -26.3%
Cc1nc(N2CC[C@@H](O)C2)ncc1-c1cc(C(F)(F)F)cc2[nH]ncc12: -5.65%
CC(=O)c1c(NS(C)(=O)=O)c2cc(-c3ccc(Cl)cc3)c(-c3ccc(Cl)cc3Cl)nc2n(C)c1=O: 29.2%
CN1CCN(C(=O)C(C)(C)c2ccc(C(=O)Nc3cn4cc(-c5ccncc5)ccc4n3)cc2)CC1: -1.52%
CC(C)CC(=O)N1CCc2nc(-c3ccc(Br)cc3)nc(N(C)Cc3ccccc3)c2C1: -5.76%
O=C(c1ccc(F)cc1)N1CC(COc2ccc(Br)cc2)(C(=O)O)C1: 12.2%
CCCCN(CCCC)C(=O)CN1C[C@@H](c2cc(OC)c3c(c2)OCO3)[C@H](C(=O)O)[C@H]1CC(C)(C)CCC: 27.1%
Cn1nc(C(=O)NCc2ccc(C(=O)O)cc2)cc1-c1ccc2[nH]ccc2c1: 10.3%
Cc1cc(NC(=O)c2cccc(S(F)(F)(F)(F)F)c2)cc(-n2ccn3nc(-c4cccnc4)cc23)c1: 10.6%

Study 3
SMILES: Cc1nc(Nc2ncc(C(=O)Nc3c(C)cccc3Cl)s2)cc(N2CCN(CCO)CC2)n1
Mode: inhibitor
Quantity: inhibition
NTRK2 (Homo sapiens, UniProt Q16620); 10 µM: < 50%
MAPK8 (Homo sapiens, UniProt P45983); 1 µM: < 50%
AAK1 (Homo sapiens, UniProt Q2M2I8); 10 µM: < 50%
NEK1 (Homo sapiens, UniProt Q96PY6); 10 µM: < 50%
CAMK2D (Homo sapiens, UniProt Q13557); 10 µM: < 50%
RET (Homo sapiens, UniProt P07949); 10 µM: 98%
PIK3CB (Homo sapiens, UniProt P42338); 10 µM: < 50%
ERBB2 (Homo sapiens, UniProt P04626); 10 µM: 85%
TEK (Homo sapiens, UniProt Q02763); 1 µM: < 50%
PIM2 (Homo sapiens, UniProt Q9P1W9); 1 µM: < 50%
Tyrosine-protein kinase JAK1, JH2 pseudokinase domain (JAK1, Homo sapiens, UniProt P23458); 10 µM: < 50%
RIPK1 (Homo sapiens, UniProt Q13546); 10 µM: < 50%
Tyrosine-protein kinase JAK1, JH1 kinase domain (JAK1, Homo sapiens, UniProt P23458); 10 µM: < 50%
CDK11B (Homo sapiens, UniProt P21127); 10 µM: < 50%
PKN2 (Homo sapiens, UniProt Q16513); 10 µM: < 50%
PAK4 (Homo sapiens, UniProt O96013); 1 µM: < 50%

Study 4
Species: mouse
Sample: microsomes or S9
Concentration: 2 µM
Time: 0.5 h
Quantity: remaining compound
COc1nc(Nc2ccc3cn[nH]c3c2)nc(-n2ccnc2)n1: 9.88%
CC(C)C(C(=O)Nc1cccc2[nH]ccc12)N1Cc2ccccc2C1=O (stereo not drawn): 93.1%
CN(Cc1ccccc1)C(=O)c1c(OCC2CC2)cc(=O)n2c1CCOCC2: 53.6%
CC(=O)Nc1ccc(Nc2cc(C)nc(-n3nc(C)cc3C)n2)cc1: 8.15%
C[C@@H]1CN(c2ccncc2F)C[C@@]1(O)C1CCC1: 23.2%
CCOC(=O)c1c(C)c(C(=O)NCCCN(C)C)c(C)n1CC: 80.7%
COC(=O)c1ccc2c(Br)c(O)c(C(=O)OC(C)(C)C)cc2c1: 44.3%
COC(=O)CC(c1cnn(C(C)C)c1)c1c(O)cc(C)n(CCc2c[nH]cn2)c1=O (stereo not drawn): 91.3%
COCCN1C(=O)c2ccccc2C(C(=O)N(C)c2ccccc2Cl)C1c1cccs1 (stereo not drawn): 1.82%
COc1cc2c(Nc3ccc(Br)cc3F)ncnc2cc1OCC1CN(C(=O)OC(C)(C)C)CCO1 (stereo not drawn): 2.54%
CN(CC(=O)N1CCCC1)Cc1cc(=O)n(C)c(=O)n1C: 97.1%
CC(C)c1nc2sc3c(c2c(=O)[nH]1)CC(C)(C)OC3: 63.6%
CC1(C)CC(=O)c2c(O)cc(OCC(=O)NCC3CCC(C(=O)O)CC3)cc2O1 (stereo not drawn): > 100%

For quick reference, copied from above (study 1):
CCN(CC)CCNC(=O)c1c(C)[nH]c(/C=C2\C(=O)Nc3ccc(Cl)cc32)c1C: 101%
N#C/C(=C\c1ccc(O)c(O)c1)C(=O)NCc1ccccc1: 110%
O=C1C(Cl)=C(N2C(=O)CCC2=O)C(=O)c2ccccc21: 105%
O=C(Nc1cccc(Nc2nccc(Nc3cccc(C(F)(F)F)c3)n2)c1)C1CC1: 101%
